Experimental data collected from several papers.
Each line is one published result; not all experiments were run side by side. Numbers after ± are the reported error.
Chain of UniProt Q9Y271 (whole entry, looked up): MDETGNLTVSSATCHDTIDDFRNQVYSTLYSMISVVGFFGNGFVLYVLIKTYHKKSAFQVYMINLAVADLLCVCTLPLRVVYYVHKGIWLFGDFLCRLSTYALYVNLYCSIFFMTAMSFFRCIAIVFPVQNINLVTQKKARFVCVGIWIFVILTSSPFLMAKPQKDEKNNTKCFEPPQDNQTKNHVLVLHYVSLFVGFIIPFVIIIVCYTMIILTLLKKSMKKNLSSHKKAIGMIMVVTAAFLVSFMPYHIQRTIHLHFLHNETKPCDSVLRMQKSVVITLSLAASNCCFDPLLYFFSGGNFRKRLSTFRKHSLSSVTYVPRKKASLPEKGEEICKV
Chain of UniProt P29322 (whole entry, looked up): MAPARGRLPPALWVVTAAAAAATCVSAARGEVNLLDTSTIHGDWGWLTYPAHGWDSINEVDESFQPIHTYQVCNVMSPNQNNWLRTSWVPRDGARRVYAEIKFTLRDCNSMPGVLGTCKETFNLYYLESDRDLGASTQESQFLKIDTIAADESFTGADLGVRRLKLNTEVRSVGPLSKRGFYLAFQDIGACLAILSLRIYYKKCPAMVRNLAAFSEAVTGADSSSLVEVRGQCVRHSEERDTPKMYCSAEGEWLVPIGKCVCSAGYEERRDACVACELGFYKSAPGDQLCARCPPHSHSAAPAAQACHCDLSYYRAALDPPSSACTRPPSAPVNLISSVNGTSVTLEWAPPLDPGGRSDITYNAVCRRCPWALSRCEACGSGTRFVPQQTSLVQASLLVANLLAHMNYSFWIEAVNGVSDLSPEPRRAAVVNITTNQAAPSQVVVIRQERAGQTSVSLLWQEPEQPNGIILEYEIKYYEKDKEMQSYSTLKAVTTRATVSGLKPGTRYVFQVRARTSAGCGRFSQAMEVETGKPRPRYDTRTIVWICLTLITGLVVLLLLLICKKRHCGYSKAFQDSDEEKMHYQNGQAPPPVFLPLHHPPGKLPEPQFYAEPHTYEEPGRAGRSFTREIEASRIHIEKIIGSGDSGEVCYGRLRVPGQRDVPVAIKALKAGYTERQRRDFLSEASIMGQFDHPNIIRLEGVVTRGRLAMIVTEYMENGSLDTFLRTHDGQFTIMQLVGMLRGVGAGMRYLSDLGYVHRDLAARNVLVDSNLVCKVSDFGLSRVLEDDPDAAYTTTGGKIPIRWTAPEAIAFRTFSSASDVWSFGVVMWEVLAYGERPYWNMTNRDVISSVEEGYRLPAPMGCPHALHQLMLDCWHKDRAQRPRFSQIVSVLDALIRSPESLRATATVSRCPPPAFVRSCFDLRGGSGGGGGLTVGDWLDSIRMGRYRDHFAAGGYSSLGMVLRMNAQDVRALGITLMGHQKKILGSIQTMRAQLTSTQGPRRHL
Chain of UniProt Q9UL54 (whole entry, looked up): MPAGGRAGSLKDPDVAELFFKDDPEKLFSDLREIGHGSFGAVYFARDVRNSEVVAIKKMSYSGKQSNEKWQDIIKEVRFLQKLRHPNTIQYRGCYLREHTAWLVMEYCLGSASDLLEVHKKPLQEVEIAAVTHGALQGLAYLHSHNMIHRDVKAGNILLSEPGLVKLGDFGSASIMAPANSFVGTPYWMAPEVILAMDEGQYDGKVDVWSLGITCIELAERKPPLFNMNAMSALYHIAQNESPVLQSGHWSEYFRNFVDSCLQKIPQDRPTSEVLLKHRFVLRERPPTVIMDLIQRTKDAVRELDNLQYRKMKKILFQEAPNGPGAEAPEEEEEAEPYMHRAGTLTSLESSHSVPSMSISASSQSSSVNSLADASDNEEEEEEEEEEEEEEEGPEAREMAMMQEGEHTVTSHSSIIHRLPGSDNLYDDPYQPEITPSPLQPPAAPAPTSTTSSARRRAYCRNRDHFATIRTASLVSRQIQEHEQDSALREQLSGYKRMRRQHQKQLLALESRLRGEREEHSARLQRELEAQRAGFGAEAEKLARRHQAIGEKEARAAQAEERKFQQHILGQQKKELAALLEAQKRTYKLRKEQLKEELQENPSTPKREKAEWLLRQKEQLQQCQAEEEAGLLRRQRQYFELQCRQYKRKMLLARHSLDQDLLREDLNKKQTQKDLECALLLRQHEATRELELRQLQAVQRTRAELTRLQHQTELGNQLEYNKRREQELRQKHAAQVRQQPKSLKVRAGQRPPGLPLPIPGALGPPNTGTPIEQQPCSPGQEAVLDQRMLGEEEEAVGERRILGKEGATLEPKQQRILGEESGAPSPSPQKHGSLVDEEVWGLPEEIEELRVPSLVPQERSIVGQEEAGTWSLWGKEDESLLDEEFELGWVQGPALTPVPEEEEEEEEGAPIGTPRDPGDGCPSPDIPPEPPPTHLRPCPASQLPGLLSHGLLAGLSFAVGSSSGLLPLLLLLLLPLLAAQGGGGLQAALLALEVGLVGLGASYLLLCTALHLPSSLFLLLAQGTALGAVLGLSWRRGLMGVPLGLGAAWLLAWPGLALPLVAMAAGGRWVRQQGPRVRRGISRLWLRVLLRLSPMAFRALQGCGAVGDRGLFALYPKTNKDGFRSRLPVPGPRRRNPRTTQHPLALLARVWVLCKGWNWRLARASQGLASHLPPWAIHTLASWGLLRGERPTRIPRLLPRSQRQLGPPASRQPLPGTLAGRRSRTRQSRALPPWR
Chain of UniProt P06276 (whole entry, looked up): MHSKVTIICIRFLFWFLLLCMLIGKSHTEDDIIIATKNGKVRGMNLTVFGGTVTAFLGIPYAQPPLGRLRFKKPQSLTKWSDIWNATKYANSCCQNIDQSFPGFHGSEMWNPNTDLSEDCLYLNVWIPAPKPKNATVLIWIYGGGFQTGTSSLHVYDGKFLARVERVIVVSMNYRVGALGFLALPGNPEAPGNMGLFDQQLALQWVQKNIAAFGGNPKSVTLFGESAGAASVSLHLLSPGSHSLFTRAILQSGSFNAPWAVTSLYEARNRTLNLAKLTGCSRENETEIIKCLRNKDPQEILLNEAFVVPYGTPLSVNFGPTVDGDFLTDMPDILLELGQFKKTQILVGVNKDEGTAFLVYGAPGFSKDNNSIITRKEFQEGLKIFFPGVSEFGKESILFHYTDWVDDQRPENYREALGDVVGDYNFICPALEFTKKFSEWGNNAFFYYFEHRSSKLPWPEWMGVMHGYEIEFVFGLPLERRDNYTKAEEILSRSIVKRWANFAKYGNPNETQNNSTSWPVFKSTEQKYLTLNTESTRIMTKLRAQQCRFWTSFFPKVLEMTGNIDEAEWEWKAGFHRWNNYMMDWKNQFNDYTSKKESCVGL
Chain of UniProt Q9Y4K4 (whole entry, looked up): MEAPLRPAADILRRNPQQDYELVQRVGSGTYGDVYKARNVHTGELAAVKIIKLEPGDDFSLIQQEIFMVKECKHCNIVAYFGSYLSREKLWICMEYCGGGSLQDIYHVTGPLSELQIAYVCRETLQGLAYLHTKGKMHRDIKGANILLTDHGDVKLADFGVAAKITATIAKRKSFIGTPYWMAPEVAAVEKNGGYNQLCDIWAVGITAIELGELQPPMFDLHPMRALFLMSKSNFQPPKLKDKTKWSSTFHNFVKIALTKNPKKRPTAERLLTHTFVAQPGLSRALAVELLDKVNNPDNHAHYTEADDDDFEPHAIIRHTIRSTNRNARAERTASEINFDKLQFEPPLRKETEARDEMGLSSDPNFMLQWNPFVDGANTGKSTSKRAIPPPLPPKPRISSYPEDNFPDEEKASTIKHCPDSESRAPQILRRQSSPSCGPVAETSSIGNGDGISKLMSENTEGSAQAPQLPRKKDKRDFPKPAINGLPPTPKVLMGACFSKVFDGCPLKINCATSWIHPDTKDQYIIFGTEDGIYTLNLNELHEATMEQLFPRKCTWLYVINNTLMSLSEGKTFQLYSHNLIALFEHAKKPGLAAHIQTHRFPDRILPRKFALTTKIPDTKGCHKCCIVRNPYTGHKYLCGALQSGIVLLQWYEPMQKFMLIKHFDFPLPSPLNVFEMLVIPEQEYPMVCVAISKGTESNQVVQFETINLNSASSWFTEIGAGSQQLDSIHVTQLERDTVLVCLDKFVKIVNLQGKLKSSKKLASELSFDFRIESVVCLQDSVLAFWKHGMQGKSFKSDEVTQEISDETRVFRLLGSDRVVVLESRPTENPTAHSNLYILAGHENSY
Chain of UniProt P32239 (whole entry, looked up): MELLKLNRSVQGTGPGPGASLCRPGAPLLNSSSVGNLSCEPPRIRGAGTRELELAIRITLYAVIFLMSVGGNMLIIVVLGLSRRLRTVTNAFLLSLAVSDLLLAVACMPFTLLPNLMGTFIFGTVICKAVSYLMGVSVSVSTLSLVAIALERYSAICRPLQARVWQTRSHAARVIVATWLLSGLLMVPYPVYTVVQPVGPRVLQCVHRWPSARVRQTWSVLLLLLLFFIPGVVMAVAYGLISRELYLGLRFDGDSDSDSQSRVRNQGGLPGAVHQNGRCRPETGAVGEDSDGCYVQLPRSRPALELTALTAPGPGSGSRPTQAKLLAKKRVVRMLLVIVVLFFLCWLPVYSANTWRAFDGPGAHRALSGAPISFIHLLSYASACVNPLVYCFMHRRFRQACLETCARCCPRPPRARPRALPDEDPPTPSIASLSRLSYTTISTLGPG
Chain of UniProt P35354 (whole entry, looked up): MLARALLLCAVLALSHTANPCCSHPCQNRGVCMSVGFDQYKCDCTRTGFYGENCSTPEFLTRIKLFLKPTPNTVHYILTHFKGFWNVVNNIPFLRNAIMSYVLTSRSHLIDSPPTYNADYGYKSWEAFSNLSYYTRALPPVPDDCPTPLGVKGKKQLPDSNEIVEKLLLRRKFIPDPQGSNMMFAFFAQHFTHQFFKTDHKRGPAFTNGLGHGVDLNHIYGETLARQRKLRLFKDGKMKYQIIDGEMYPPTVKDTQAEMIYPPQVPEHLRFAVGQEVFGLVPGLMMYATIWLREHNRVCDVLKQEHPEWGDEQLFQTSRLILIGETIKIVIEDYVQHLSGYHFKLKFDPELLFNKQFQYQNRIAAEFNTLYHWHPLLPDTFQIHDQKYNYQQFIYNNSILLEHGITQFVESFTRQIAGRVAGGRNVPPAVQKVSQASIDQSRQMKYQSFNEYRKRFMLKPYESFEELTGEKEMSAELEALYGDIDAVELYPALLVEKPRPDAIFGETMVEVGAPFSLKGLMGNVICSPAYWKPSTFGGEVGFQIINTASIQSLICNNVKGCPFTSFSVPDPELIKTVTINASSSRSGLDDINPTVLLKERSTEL

CN(/N=C/c1ccccc1C(=O)O)c1nc(-c2ccccc2Cl)cs1 — inhibition (ABL2 (Homo sapiens, UniProt P42684); enzyme activity, inhibitor; 1 µM): -14.2%
Cc1cc(-c2ccc3ccccc3c2)nnc1NCCN1CCN(C)CC1 — inhibition (PTGS2 (Homo sapiens, UniProt P35354); enzyme activity; 10000 nM): 9%
CC(C)[C@H]1NC(=O)C[C@H]2/C=C/CCSSC[C@@H](NC1=O)C(=O)N[C@H](Cc1cccc3ccccc13)C(=O)NCC(=O)O2 — inhibition (TNK2 (Homo sapiens, UniProt Q07912); enzyme activity, inhibitor; 10 µM): -1.1%
C[C@H](NCc1ccc(-c2ccc(C(F)(F)F)cc2)cc1)C(N)=O — inhibition (KIT (Homo sapiens, UniProt P10721, D816V); cell-free assay, competition with immobilised ligand; 1 µM): 8%
CN[C@@H]1[C@H](O)[C@H](NC)[C@H]2O[C@]3(O)[C@H](O[C@@H]2[C@H]1O)O[C@H](C)C[C@H]3NC(=O)Cc1ccc(Cl)cn1 — inhibition (Adra1b (Rattus norvegicus, UniProt P15823); ligand displacement, radioligand; 10 µM): -5%
CS(C)(=O)=Nc1ccc(-c2ccc(-c3nc4cc(O[C@@H]5CO[C@H]6[C@@H]5OC[C@H]6O)[nH]c4cc3F)cc2)cc1 — inhibition (CCKBR (Homo sapiens, UniProt P32239); calcium signal, antagonist; 10 µM): 13%
O=C(O)c1ccccc1/C=N/Nc1nc(-c2ccccc2Cl)cs1 — inhibition (EPHA8 (Homo sapiens, UniProt P29322); enzyme activity, inhibitor; 1 µM): -4.43%
CCN(CC)CCOc1ccc(-c2nnn(Cc3ccc(OC)cc3)c2N)cc1 — inhibition (KCNQ1 (Homo sapiens, UniProt P51787); ion channel; CHO; 10 µM, with: 10000 nM): 44%
CCOC(=O)[C@](CC)(CCCSCCOCCOCCNC(=O)c1ccc(-c2c3ccc(=N)c(S(=O)(=O)O)c-3oc3c(S(=O)(=O)O)c(N)ccc23)c(C(=O)O)c1)NC(=O)c1ccc(C2CC2)c(Cc2ccc(F)cc2)n1 — inhibition (L-type calcium channel diltiazem site; specific binding, antagonist radioligand binding; 10 µM): 6%
N[C@H](C(=O)N1CCCC1)C1CCN(c2nccc3c(-c4ncc(Cl)cc4Cl)cccc23)CC1 — inhibition (Aurora kinase A (AURKA, Homo sapiens, UniProt O14965); kinase activity, inhibitor; 10 µM, with: ATP 1 mM): 6.5%
Cc1ccc2c(n1)c(-c1cccc(S(C)(=O)=O)c1)c(C)n2C/C(F)=C/CN — inhibition (PDE4 (human); 10 µM): -13%
CN[C@@H]1[C@H](O)[C@H](NC)[C@H]2O[C@]3(O)[C@H](O[C@@H]2[C@H]1O)O[C@H](C)C[C@H]3NC(=O)Cc1cc(Cl)ccn1 — inhibition (CYSLTR1 (Homo sapiens, UniProt Q9Y271); ligand displacement, radioligand; 10 µM): 4%
COc1ccc(F)cc1S(=O)(=O)Nc1cnc2c(c1)C(=O)NCCO2 — inhibition (androgen receptor; radioligand binding; 10 µM, with: testosterone): -12%
CCc1nnc(-c2c(OC)cc(-c3cnc4cc(-c5cnn(C)c5)ccn34)cc2OC)o1 — inhibition (HRH1 (Homo sapiens, UniProt P35367); antagonist radioligand, radioligand binding; 10 µM, SafetyScreen44 H1): -6%
O=C(CN1CN(c2ccccc2)C2(CCN(C(=O)c3cnc4[nH]ncc4c3)CC2)C1=O)NCC(F)(F)F — inhibition (IRAK4 (Homo sapiens, UniProt Q9NWZ3); inhibitor; concentration not given): < 50%
CN(C)[C@H]1C[C@@]23CC[C@@]4(O2)C(=CC[C@]2(C)[C@@H](c5ccc6ccncc6c5)CC[C@H]24)C=C3[C@@H](O)[C@@H]1O — inhibition (IKBKE (Homo sapiens, UniProt Q14164); ATP probe labelling, inhibitor, KiNativ profiling; 1 µM): -15.4%
C=CC(=O)Nc1cc(-c2nn(C3CCC(N4CCN(C(C)=O)CC4)CC3)c3ncnc(N)c23)ccc1Oc1ccccc1 (stereo not drawn) — inhibition (TAOK2 (Homo sapiens, UniProt Q9UL54); inhibitor, KiNativ profiling; biochemical; 2 µM): 1.8%
CS(=O)(=O)Nc1cccc(-c2csc3cnc(Nc4ccc(N5CCN(CCCCCOc6cccc7c6C(=O)N(C6CCC(=O)NC6=O)C7=O)CC5)cc4)nc23)c1 (stereo not drawn) — inhibition (MAP4K5 (Homo sapiens, UniProt Q9Y4K4); probe labelling, inhibitor, KiNativ chemoproteomics; MOLT-4; 1 µM): 1.21%
O=C1NC2(CC2)COc2ncc(F)cc2[C@H]2COCCN2c2ccn3ncc1c3n2 — albumin (Sprague-Dawley rat, male, serum; oral, 5 mg/kg/day, 4 weeks daily, end of treatment): 34.7 ± 1.8 g/L
N#Cc1ccc(N2N=C3c4ccc(C(=O)O)cc4CCC3C2C2CCCC2)cc1Cl (stereo not drawn) — inhibition (SUV39H1 (Homo sapiens, UniProt O43463); enzyme activity, inhibitor; 10 µM): 3%
CCC(O)CN1CCN(C(=O)Cc2cn3ccccc3n2)CC1 (stereo not drawn) — inhibition (Cholinesterase (BCHE, Homo sapiens, UniProt P06276); enzyme activity, inhibitor, Ellman; 10 µM): 23.9%

A few entries again:
CCOC(=O)[C@](CC)(CCCSCCOCCOCCNC(=O)c1ccc(-c2c3ccc(=N)c(S(=O)(=O)O)c-3oc3c(S(=O)(=O)O)c(N)ccc23)c(C(=O)O)c1)NC(=O)c1ccc(C2CC2)c(Cc2ccc(F)cc2)n1 — inhibition (L-type calcium channel diltiazem site; specific binding, antagonist radioligand binding; 10 µM): 6%
CS(C)(=O)=Nc1ccc(-c2ccc(-c3nc4cc(O[C@@H]5CO[C@H]6[C@@H]5OC[C@H]6O)[nH]c4cc3F)cc2)cc1 — inhibition (CCKBR (Homo sapiens, UniProt P32239); calcium signal, antagonist; 10 µM): 13%
